Measured values from different studies.
Every numbered part comes from another study and shows a few of its results, in no order. Values joined by “and” are separate records of one study, mostly repeats; a detail may differ.
Sequence of UniProt Q13233 (whole entry, looked up): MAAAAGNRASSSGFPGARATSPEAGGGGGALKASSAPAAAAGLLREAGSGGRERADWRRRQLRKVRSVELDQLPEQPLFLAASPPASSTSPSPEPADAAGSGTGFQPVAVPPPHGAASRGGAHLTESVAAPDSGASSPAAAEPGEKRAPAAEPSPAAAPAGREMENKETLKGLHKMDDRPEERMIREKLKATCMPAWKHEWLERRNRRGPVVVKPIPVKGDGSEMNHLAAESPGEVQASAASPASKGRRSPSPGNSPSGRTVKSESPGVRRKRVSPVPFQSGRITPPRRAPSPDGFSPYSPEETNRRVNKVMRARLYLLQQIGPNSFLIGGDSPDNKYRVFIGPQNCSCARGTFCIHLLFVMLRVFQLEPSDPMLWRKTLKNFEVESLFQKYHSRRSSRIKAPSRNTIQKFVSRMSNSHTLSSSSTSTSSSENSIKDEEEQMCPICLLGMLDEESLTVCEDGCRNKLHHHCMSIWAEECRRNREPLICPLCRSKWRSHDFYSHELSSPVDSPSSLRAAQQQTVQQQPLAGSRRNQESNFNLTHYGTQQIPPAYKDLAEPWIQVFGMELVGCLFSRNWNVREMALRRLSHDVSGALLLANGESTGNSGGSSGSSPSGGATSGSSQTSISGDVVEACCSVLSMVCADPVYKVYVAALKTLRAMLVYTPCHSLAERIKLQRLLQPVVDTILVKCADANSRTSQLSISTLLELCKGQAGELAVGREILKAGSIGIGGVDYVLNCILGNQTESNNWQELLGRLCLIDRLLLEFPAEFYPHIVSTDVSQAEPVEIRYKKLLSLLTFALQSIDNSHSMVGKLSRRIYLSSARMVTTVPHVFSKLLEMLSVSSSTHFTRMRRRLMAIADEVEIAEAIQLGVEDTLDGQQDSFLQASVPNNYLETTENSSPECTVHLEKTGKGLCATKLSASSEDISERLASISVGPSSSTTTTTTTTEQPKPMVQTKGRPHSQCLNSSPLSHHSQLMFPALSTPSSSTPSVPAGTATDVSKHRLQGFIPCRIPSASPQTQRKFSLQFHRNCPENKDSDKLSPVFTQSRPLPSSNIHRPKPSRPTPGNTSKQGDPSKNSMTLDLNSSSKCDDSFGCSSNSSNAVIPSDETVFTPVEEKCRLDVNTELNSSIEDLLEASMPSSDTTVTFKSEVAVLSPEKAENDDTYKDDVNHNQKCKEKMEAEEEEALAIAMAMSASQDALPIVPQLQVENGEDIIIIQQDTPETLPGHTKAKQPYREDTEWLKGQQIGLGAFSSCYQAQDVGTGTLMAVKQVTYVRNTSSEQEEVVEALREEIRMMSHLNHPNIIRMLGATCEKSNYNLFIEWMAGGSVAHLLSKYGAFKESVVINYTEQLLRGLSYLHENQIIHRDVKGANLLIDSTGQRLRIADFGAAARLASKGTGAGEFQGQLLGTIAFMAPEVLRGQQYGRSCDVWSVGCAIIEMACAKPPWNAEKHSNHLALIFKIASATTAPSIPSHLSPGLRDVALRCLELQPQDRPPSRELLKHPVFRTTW
Sequence of UniProt P41743 (whole entry, looked up): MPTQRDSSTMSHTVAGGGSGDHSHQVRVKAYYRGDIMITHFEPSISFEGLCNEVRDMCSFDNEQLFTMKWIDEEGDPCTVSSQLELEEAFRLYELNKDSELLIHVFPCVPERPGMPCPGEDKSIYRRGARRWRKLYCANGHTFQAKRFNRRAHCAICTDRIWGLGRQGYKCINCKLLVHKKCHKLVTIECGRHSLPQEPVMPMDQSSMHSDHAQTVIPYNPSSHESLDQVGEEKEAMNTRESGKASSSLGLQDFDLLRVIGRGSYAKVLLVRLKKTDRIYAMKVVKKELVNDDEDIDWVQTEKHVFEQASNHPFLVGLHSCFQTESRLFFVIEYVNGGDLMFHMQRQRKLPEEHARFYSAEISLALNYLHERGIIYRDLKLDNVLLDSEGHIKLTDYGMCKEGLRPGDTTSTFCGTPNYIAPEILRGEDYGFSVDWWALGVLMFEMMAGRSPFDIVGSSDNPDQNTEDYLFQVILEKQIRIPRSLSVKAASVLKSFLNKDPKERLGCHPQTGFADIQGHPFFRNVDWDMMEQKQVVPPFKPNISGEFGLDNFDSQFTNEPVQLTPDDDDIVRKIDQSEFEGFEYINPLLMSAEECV
Sequence of UniProt P62344 (whole entry, looked up): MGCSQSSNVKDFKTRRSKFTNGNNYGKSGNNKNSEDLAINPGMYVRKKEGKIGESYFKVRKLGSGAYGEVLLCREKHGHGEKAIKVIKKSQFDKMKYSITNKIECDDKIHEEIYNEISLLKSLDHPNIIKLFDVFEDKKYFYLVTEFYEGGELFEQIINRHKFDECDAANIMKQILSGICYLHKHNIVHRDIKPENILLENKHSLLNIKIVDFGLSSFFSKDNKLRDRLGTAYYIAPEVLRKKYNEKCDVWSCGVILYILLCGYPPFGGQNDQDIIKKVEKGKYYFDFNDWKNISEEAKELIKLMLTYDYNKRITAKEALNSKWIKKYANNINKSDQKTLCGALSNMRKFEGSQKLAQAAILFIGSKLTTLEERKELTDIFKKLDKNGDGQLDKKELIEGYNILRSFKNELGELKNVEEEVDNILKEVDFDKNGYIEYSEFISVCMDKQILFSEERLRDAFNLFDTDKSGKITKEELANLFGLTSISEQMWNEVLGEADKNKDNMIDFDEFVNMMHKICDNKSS
Sequence of UniProt Q2M2I8 (whole entry, looked up): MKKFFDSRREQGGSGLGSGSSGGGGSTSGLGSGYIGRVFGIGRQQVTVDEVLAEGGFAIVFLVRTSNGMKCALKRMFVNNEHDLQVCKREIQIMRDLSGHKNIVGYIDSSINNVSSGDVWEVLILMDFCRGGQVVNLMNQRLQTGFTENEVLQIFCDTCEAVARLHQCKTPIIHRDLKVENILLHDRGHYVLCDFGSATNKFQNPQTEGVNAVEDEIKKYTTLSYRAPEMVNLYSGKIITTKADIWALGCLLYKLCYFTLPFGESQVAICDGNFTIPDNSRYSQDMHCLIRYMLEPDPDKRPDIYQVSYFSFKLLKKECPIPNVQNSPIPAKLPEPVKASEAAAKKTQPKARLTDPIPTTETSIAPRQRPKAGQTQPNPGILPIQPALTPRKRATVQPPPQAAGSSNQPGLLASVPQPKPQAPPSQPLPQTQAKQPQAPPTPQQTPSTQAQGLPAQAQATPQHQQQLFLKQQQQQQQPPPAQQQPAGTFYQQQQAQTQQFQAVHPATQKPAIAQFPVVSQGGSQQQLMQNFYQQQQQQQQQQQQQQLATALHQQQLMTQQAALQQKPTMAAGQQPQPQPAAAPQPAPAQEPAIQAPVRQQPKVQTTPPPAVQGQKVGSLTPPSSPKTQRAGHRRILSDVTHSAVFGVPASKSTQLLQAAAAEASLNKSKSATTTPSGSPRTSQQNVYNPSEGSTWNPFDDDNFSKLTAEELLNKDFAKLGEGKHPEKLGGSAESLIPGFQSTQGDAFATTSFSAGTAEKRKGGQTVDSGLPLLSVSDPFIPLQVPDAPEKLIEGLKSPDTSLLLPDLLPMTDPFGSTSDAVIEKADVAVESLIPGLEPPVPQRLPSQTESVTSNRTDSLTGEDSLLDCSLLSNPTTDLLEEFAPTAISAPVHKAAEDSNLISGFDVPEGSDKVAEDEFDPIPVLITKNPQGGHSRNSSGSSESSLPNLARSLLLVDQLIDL

Study 1
Structure (SMILES): Cc1ncsc1-c1ccc(C(CO)NC(=O)C2CC(O)CN2C(=O)C(C(C)C)n2cc(-c3ccc(COc4c(-c5c(C)c(F)cc6[nH]ncc56)c(C5CC5)cc5c(N6CC7CC6CN7)nc(OC6CCOCC6)nc45)cc3)nn2)cc1 (stereo not drawn)
| system | conditions | tumour volume |
| --- | --- | --- |
| mouse, HT-29 xenograft | sc, 30 mg/kg once daily, day 3 | 351 mm3 and 334 mm3 and 274 mm3 and 303 mm3 and 296 mm3 |
| KP-4 xenograft, mouse | 30 mg/kg once weekly, day 0 | 215 mm3 and 256 mm3 and 197 mm3 and 192 mm3 and 180 mm3 |
| HPAC xenograft, mouse | 30 mg/kg twice weekly, day 0 | 226 mm3 and 215 mm3 and 213 mm3 and 307 mm3 and 203 mm3 |
| HPAC xenograft, mouse | 30 mg/kg once weekly, day 14 | 413 mm3 and 376 mm3 and 314 mm3 and 344 mm3 and 331 mm3 |
| mouse, lung LXFA sample A PDX | 30 mg/kg twice weekly, day 15 | 63.4 mm3 and 49.9 mm3 and 130 mm3 and 77.9 mm3 and 5.3 mm3 and 116 mm3 and 35.6 mm3 and 83.8 mm3 |
| mouse, lung LXFA sample A PDX | 10 mg/kg twice weekly, day 0 | 87.4 mm3 and 140 mm3 and 66.8 mm3 and 233 mm3 and 108 mm3 and 217 mm3 and 121 mm3 and 60.4 mm3 |

Study 2 — concentration: 1 µM
Compound: CC[C@@]1(c2cccc(C(F)(F)F)c2)C2=C(Nc3n[nH]cc31)[C@H](F)C(C)(C)CC2=O (single isomer, unassigned)
| target | test | how to read | remaining binding |
| --- | --- | --- | --- |
| NEK4 (Homo sapiens, UniProt P51957) | binding, competition with immobilised ligand | – | 100% |
| KIT (Homo sapiens, UniProt P10721, D816H) | kinase binding, KINOMEscan | relative to: DMSO control | 100% |
| Tyrosine-protein kinase ABL1, phosphorylated (ABL1, Homo sapiens, UniProt P00519, E255K) | kinase binding, KINOMEscan | relative to: DMSO control | 65% |
| TAOK1 (Homo sapiens, UniProt Q7L7X3) | binding, competition with immobilised ligand | – | 100% |
| NTRK3 (Homo sapiens, UniProt Q16288) | kinase binding, KINOMEscan | relative to: DMSO control | 75% |
| PKN1 (Homo sapiens, UniProt Q16512) | kinase binding, KINOMEscan | relative to: DMSO control | 100% |
| MAP3K1 (Homo sapiens, UniProt Q13233) | binding, competition with immobilised ligand | – | 100% |
| SRPK1 (Homo sapiens, UniProt Q96SB4) | kinase binding, KINOMEscan | relative to: DMSO control | 99% |
| AAK1 (Homo sapiens, UniProt Q2M2I8) | kinase binding, KINOMEscan | relative to: DMSO control | 88% |
| CHUK (Homo sapiens, UniProt O15111) | binding, competition with immobilised ligand | – | 100% |
| PRKCI (Homo sapiens, UniProt P41743) | binding, competition with immobilised ligand | – | 91% |
| CDPK1 (Plasmodium falciparum, UniProt P62344) | kinase binding, KINOMEscan | relative to: DMSO control | 100% |

Study 3 — effect on: thermal unfolding; method: differential scanning fluorimetry; concentration: 5.5 µM; direction: higher = more unfolded
Compound: C[C@@H]1CN(c2ccc(-c3cc(C(=O)NCCOCCOCCOCCOCCNC(=O)Cn4cc(-c5[nH]cc(C(=O)N[C@@H](CC(N)=O)c6ccc(F)c(Cl)c6)c5-c5ccc(Cl)cc5F)cn4)ccc3F)cc2NC(=O)c2c[nH]c(=O)cc2C(F)(F)F)C[C@H](C)N1C
DCAF1: DDB1- and CUL4-associated factor 1 (DCAF1, Homo sapiens, UniProt Q9Y4B6)
Sequence of UniProt Q9Y4B6 (whole entry, looked up): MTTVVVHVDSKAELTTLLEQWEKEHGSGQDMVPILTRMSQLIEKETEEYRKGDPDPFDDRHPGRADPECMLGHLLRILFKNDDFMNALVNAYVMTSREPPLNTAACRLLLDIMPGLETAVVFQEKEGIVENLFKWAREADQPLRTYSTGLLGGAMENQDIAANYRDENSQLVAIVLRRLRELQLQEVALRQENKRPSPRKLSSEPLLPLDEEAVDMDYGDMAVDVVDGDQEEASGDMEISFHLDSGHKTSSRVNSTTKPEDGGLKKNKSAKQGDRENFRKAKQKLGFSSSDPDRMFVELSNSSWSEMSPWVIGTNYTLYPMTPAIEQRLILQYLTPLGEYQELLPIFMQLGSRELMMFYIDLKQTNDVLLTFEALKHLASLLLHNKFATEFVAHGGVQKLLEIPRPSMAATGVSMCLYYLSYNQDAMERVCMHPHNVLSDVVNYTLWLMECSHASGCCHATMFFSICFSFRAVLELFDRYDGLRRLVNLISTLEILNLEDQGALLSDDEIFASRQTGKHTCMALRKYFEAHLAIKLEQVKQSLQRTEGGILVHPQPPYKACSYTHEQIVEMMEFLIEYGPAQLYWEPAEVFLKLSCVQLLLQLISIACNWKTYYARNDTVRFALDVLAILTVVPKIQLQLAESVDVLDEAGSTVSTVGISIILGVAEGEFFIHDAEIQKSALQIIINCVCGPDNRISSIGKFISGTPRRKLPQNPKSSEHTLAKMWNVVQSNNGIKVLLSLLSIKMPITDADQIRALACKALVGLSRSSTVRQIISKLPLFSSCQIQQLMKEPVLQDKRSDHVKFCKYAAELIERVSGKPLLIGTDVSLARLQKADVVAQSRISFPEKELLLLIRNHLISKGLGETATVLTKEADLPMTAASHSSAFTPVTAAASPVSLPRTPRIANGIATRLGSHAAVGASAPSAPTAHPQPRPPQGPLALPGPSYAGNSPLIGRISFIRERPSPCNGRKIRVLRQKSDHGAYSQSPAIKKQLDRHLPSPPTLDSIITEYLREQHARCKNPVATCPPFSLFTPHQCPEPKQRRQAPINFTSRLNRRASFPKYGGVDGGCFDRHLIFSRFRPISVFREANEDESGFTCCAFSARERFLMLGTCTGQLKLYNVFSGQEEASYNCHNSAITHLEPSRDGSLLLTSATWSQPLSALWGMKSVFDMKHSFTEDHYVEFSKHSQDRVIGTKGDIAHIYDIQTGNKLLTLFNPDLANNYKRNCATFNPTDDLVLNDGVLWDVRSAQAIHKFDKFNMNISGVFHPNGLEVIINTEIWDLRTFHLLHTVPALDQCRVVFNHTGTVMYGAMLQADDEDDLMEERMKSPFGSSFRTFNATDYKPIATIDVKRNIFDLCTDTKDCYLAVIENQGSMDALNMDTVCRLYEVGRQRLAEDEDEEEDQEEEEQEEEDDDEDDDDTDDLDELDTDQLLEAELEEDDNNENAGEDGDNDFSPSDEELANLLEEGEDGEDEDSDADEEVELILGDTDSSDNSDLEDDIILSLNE
WDR5: WD repeat-containing protein 5 (WDR5, Homo sapiens, UniProt P61964)
| target | conditions | SYPRO Orange fluorescence |
| --- | --- | --- |
| DCAF1 | 85.21 °C | 39500 a.u. |
| WDR5 | 35 °C | 14300 a.u. |
| WDR5 | 43.8 °C | 14500 a.u. |
| WDR5 | 44.4 °C | 14500 a.u. |
| DCAF1 | 58.21 °C | 29700 a.u. |
| DCAF1 | 30.2 °C | 8310 a.u. |
| DCAF1 | 93.21 °C | 31800 a.u. |

Mixed results
| SMILES | tested on | test | system | conditions | measurement | value |
| --- | --- | --- | --- | --- | --- | --- |
| Cc1ccc(O)c(C)c1-c1cnc2[nH]c(-c3cnc(N4CCC(CN5CCN(c6ccc(NC7CCC(=O)NC7=O)cc6F)CC5)CC4)nc3)cc2c1C#N (stereo not drawn) | – | – | male beagle dog, plasma | intravenous, 1 mg/kg | Vd | 2.5 L/kg |
| Cc1ccc(O)c(C)c1-c1cnc2[nH]c(-c3cnc(N4CCC5(CC4)CC(N4CCN(c6ccc(N[C@H]7CCC(=O)NC7=O)cc6F)CC4)CO5)nc3)cc2c1C#N (single isomer, unassigned) | KLE | cell proliferation | – | 1.524 nM | inhibition | -1.07% and -1.1% and 0.5% |

Repeated from above (study 2):
| target | test | how to read | remaining binding |
| --- | --- | --- | --- |
| NEK4 (Homo sapiens, UniProt P51957) | binding, competition with immobilised ligand | – | 100% |
| KIT (Homo sapiens, UniProt P10721, D816H) | kinase binding, KINOMEscan | relative to: DMSO control | 100% |
| Tyrosine-protein kinase ABL1, phosphorylated (ABL1, Homo sapiens, UniProt P00519, E255K) | kinase binding, KINOMEscan | relative to: DMSO control | 65% |
